Experimental data collected from several papers.
Lines come from different studies, so protocols differ.
Cell line: NCI-H460

SMILES | assay | conditions | scale | measurement | result
CCCC(CCC)C(=O)OCc1cn(-c2cc3ccccc3oc2=O)nn1 | NCI60 single-dose screen | 10 µM |  | growth percentage | 102%
O=C(O)c1ccc(-c2ccc(O)cc2)c2c1C=C(c1ccc(O)cc1)OC2(c1ccc(O)cc1)c1ccc(O)cc1 | annexin V/PI flow cytometry | 30 µM, 24 h |  | apoptotic cells | 48.4%
CCN(C(=O)c1cc(F)ccc1Oc1nncnc1N1CCC2(C1)CN([C@H](CCCN(C)CCOC)C(C)C)C2)C(C)C | cell growth or viability | 72 h |  | GI50 | > 10000 nM
O=C(Nc1nnc2c1c(-c1ccc(Cl)cc1)nc1sc(=Cc3ccco3)c(=O)n12)c1ccccc1 (mixture of isomers) | SRB | 10 µM, NCI60 single-dose screen | baseline: untreated | cell growth | 15.8%
Cc1nc2c(F)cc(-c3nc(Nc4ccc(C(=O)NCCCCCC(=O)NO)cc4)ncc3F)cc2n1C(C)C | cell growth or viability, CCK-8 | 0.3 µM, 48 h |  | inhibition | 99.1%
COc1ccccc1[C@H](Cn1c(=O)n(C(C)(C)C(N)=O)c(=O)c2c(C)c(-c3ncco3)sc21)OC1CCOCC1 | cell proliferation, inhibitor | 168 h |  | EC50 | 38 nM
CN(C)CCN1CCN(c2ccc3nc(-c4ccc5nc(-c6ccc(C(F)(F)F)cc6)[nH]c5c4)[nH]c3c2)CC1 | SRB | 10 µM, 48 h |  | growth percent | 10.6%
Cc1ccc(C(=O)/C=C/c2ccccc2)s1 | SRB | 10 µM |  | growth inhibition | < 0%
Cc1nc2c(F)cc(-c3nc(Nc4ccc(CNC(=O)CCCCCCC(=O)NO)cc4)ncc3F)cc2n1C(C)C | cell growth or viability, CCK-8 | 0.3 µM, 48 h |  | inhibition | 99.6%
CCCCCCCCCCCCCCCCCCOc1ccccc1CCOP(=O)([O-])OCC[N+](C)(C)C | cell growth or viability, SRB | 10 µM |  | inhibition | 37.9%
C1=[N+]2CCCC[N+]3=Cc4ccc5[n]4[Au-]23[n]2c1ccc2-c1nc2ccccc2nc1-5.F[P-](F)(F)(F)(F)F | NCI60 five-dose screen |  |  | TGI | 4 -log M

For quick reference, copied from above:
SMILES | assay | conditions | scale | measurement | result
Cc1nc2c(F)cc(-c3nc(Nc4ccc(CNC(=O)CCCCCCC(=O)NO)cc4)ncc3F)cc2n1C(C)C | cell growth or viability, CCK-8 | 0.3 µM, 48 h |  | inhibition | 99.6%
CCCCCCCCCCCCCCCCCCOc1ccccc1CCOP(=O)([O-])OCC[N+](C)(C)C | cell growth or viability, SRB | 10 µM |  | inhibition | 37.9%
